Published values from different studies.
Lines come from different studies, so protocols differ. Several values in a cell are separate wells, animals, samples, runs or records. ± marks the error that the study gave.
Cell line: MCF7

`COC(=O)c1cc(NC2=NC(=O)C(=Cc3ccc(N(C)C)cc3)S2)ccc1OC(C)=O` gave a fold change of 0.317 (item: RIF1 mRNA; 0.81 µM, 24 h; reference: DMSO).
The inhibition of `COc1ccc(CNC[C@@](O)(COCc2ccc(F)cc2)[C@@H]2CC[C@@H](C)C[C@H]2OCc2ccc(F)cc2)cc1` is reported as 98.3% (cell growth or viability, MTT; 10 µM, 72 h).
With `COC(=O)c1cc(NC2=NC(=O)C(=Cc3ccc(C)cc3)S2)ccc1OC(C)=O` the metabolite level was -0.14 fold change (GC-MS, item: Pyroglutamic acid; 1 µM; reference: DMSO).
`Oc1ccnc(-c2cc(O)ccn2)c1.[Cl-].[Cl-].[Ru+2].c1ccc(-c2ccnc3c2ccc2c(-c4ccccc4)ccnc23)cc1.c1ccc(-c2ccnc3c2ccc2c(-c4ccccc4)ccnc23)cc1` gave an EC50 of greater than 100 µM (cell growth or viability; dark).
The growth inhibition of `CCC(=CCc1c(O)cc2c(c1O)C(=O)CC(c1ccccc1O)O2)CC` (centres unmarked) is reported as 8.55% (cytotoxicity, MTT; 27.14 µM, 48 h).
With `C/C(=N\N=c1/[nH]c(-c2ccccc2)cs1)c1c(O)c2ccccc2oc1=O` the selectivity index was greater than 2.87 (cell growth, MTT; reference: IC50 BJ-1 over MCF7).
With `C[C@@H]1CC[C@@H]([C@](O)(CNCc2ccccc2F)COCc2ccccc2)[C@H](OCc2ccccc2)C1` the inhibition was 97.4% (cell growth or viability, MTT; 10 µM, 72 h).
For `Cc1c(COc2cc(OCc3cccc(C#N)c3)c(CN3CCCC[C@@H]3C(=O)O)cc2Cl)cccc1-c1cccc(OCCCCCCC(=O)NO)c1`, PD-L1 expression read “increased” (flow cytometry; 20 µM, 48 h; reference: control).
With `C1=[N+]2CCCC[N+]3=Cc4ccc5[n]4[Au-]23[n]2c1ccc2-c1nc2ccccc2nc1-5.F[P-](F)(F)(F)(F)F` the TGI was 4.6 -log M (NCI60 five-dose screen).
The apoptotic cells of `Cc1c(COc2cc(OCc3cccc(C#N)c3)c(CNC(CO)(CO)CO)cc2Cl)cccc1-c1cccc(OCCCCCC(=O)NO)c1` is reported as 74.6% (annexin V-FITC/PI flow cytometry; 20 µM, 48 h, early plus late apoptosis).
The inhibition of `COc1ccc(COC[C@](O)(CNCc2ccccc2)[C@@H]2CC[C@@H](C)C[C@H]2OCc2ccc(OC)cc2)cc1` is reported as 97.5% (cell growth or viability, MTT; 10 µM, 72 h).
`COCCCCCNc1nc(NCCCCCCN(C)C)c2cc(NC(=O)/C=C/CN(C)C)ccc2n1` gave a viability of 0.887 and 0.948 and 0.898 (CellTiter-Glo; 50 µM, 24 h, unit not given; reference: DMSO-treated cells).
`C=CCc1c(O)cc2c(c1O)C(=O)CC(c1ccc(O)cc1)O2` (centres unmarked) gave a growth inhibition of 2.23% (cytotoxicity, MTT; 32.02 µM, 48 h).
`FC(F)(F)C1(c2ccc(CN3CCN(C(c4ccccc4)c4ccc(Cl)cc4)CC3)cc2)CCC1` (centres unmarked) gave an EC50 of 14.7 ± 0.39 µM (72 h).
`CCC(=CCc1c(O)cc2c(c1O)C(=O)CC(c1ccc(O)cc1)O2)CC` (centres unmarked) has a growth inhibition of 72.8% (cytotoxicity, MTT; 54.29 µM, 48 h).
For `CC[C@@H]([C@H](C)c1ccc(O)cc1)[C@@H](CC)c1ccc(O)cc1`, the EC50 was 0.019 µM (cell growth or viability, ATP luminescence; 5 days).
`O=C(CCl)c1ccccc1Nc1cccc(C(F)(F)F)c1`: “TEAD reporter activity” 0.1 ± 0.1% (firefly luciferase reporter; 100 µM, 6 h; reference: vehicle).
With `CCn1c(-c2ccccc2)cs/c1=N/N=C(\C)c1c(O)c2ccccc2oc1=O` the selectivity index was greater than 3.86 (cell growth, MTT; reference: IC50 BJ-1 over MCF7).
`COc1cccc(CNC[C@@](O)(COCc2ccccc2)[C@@H]2CC[C@@H](C)C[C@H]2OCc2ccccc2)c1` has an inhibition of 72.1% (cell growth or viability, MTT; 10 µM, 72 h).
With `CCC(=CCc1c(O)cc2c(c1O)C(=O)CC(c1cccc(O)c1)O2)CC` (centres unmarked) the growth inhibition was 15.4% (cytotoxicity, MTT; 6.786 µM, 48 h).
`CCCCCCCCCCCCCC(=S)NCCCC[C@H](NS(C)(=O)=O)C(=O)N[C@@H](C)C(=O)N[C@@H](CCCNC(=N)N)C(N)=O` has an EC50 of 28.4 to 34.3 µM (cell growth or viability, MTT; 72 h).
`CC(C)C[C@@H](NC(=O)[C@H](C)NC(=O)CNC(=O)[C@@H](NC=O)C(C)C)C(=O)N[C@@H](C)C(=O)N[C@@H](C(=O)N[C@H](C(=O)N[C@@H](C(=O)N[C@@H](Cc1c[nH]c2ccccc12)C(=O)N[C@H](CC(C)C)C(=O)N[C@@H](Cc1c[nH]c2ccccc12)C(=O)N[C@H](CC(C)C)C(=O)N[C@@H](Cc1c[nH]c2ccccc12)C(=O)N[C@H](CC(C)C)C(=O)N[C@@H](Cc1c[nH]c2ccccc12)C(=O)NCCO)C(C)C)C(C)C)C(C)C`: “cells in S phase” 23.1 ± 1.71% (flow cytometry; 20 nM, 48 h).
Under “cells in pre-G1 phase”, `CSC(=NN=C(C)c1ccc(S(=O)(=O)N2CCC(C)CC2)cc1)N(C)C` is recorded as 16.2% (flow cytometry; 4.29 µM (IC50), 72 h).
With `C[C@@H]1CC[C@@H]([C@@](O)(CNCc2cccc(F)c2)COCc2ccccc2)[C@H](OCc2ccccc2)C1` the inhibition was 95.7% (cell growth or viability, MTT; 10 µM, 72 h).
`CC(=O)[O][Pd][c]1ccccc1N1N=C(C)C(C)(C)C1=O.CC(=O)[O][Pd][c]1ccccc1N1N=C(C)C(C)(C)C1=O` — result for “caspase-9 active cells”: 29.6 ± 0.8% (FLICA flow cytometry; 25 µM, 24 h).
The growth inhibition of `COc1ccc(C2CC(=O)c3c(cc(O)c(CC=C(C)C)c3O)O2)cc1` (centres unmarked) is reported as 53.4% (cytotoxicity, MTT; 112.9 µM, 48 h).
For `COc1cc(/C=C/C(=O)/C=C(O)/C=C/c2ccc(OCC(=O)N3CCOCCOCCOCC3)c(OC)c2)ccc1OCC(=O)N1CCOCCOCCOCC1`, the inhibition was 47.6% (cell growth or viability, SRB; 25 µM).
`CCC(=CCc1c(O)cc2c(c1O)C(=O)CC(c1ccc(OC)c(O)c1)O2)CC` (centres unmarked) has a growth inhibition of 89.5% (cytotoxicity, MTT; 50.19 µM, 48 h).
`CSC(=S)N/N=C(\C)c1ccc(S(=O)(=O)N2CCC(C)CC2)cc1` — result for “cells in G0/G1 phase”: 34.9% (flow cytometry; 4.29 µM (IC50), 72 h).
With `C[C@@H]1CC[C@@H]([C@@](O)(CNCc2ccc(F)cc2)COCc2ccccc2)[C@H](OCc2ccccc2)C1` the inhibition was 82.9% (cell growth or viability, MTT; 10 µM, 72 h).
Under “late apoptotic cells”, `CC(=O)[O][Pd][c]1cc(C)ccc1N1N=C(C)C(C)(C)C1=O.CC(=O)[O][Pd][c]1cc(C)ccc1N1N=C(C)C(C)(C)C1=O` is recorded as 58.8 ± 1.13% (annexin V/PI flow cytometry; 25 µM, 24 h).
With `C[C@@H]1CC[C@@H]([C@@](O)(COCc2ccccc2)Cn2cnc3ccccc32)[C@H](OCc2ccccc2)C1` the inhibition was 86.4% (cell growth or viability, MTT; 30 µM, 72 h).
`CC(=NN=c1sc(C(=O)c2ccccc2)nn1-c1ccccc1)c1ccc(S(=O)(=O)N2CCC(C)CC2)cc1` — result for “late apoptotic cells”: 6.77% (annexin V/PI; concentration not given, 72 h, at IC50).
For `CC(=O)[O][Pd][c]1ccccc1-n1nc(C)cc1C.CC(=O)[O][Pd][c]1ccccc1-n1nc(C)cc1C`, “caspase-9 active cells” read 40.6 ± 1.15% (FLICA flow cytometry; 25 µM, 24 h).
The inhibition of `C[C@@H]1CC[C@@H]([C@@](O)(CNCc2ccc(F)cc2)COCc2ccc(F)cc2)[C@H](OCc2ccc(F)cc2)C1` is reported as 96.4% (cell growth or viability, MTT; 10 µM, 72 h).

A few entries again:
`COc1cccc(CNC[C@@](O)(COCc2ccccc2)[C@@H]2CC[C@@H](C)C[C@H]2OCc2ccccc2)c1` has an inhibition of 72.1% (cell growth or viability, MTT; 10 µM, 72 h).
With `CCC(=CCc1c(O)cc2c(c1O)C(=O)CC(c1cccc(O)c1)O2)CC` (centres unmarked) the growth inhibition was 15.4% (cytotoxicity, MTT; 6.786 µM, 48 h).
`CCCCCCCCCCCCCC(=S)NCCCC[C@H](NS(C)(=O)=O)C(=O)N[C@@H](C)C(=O)N[C@@H](CCCNC(=N)N)C(N)=O` has an EC50 of 28.4 to 34.3 µM (cell growth or viability, MTT; 72 h).
